Measured values gathered from unrelated publications.
Each numbered part is a random draw from the data of one study; scales do not carry over between parts. Positions count from the first letter of the parent shown.

Set 1
Target: CCNB2, cyclin fold, Cln2 fusion (human)
Technique: yeast growth competition, sequencing
Medium: yeast
Setting: strong parent motif
Reference: not given
Reading: higher = stronger binding
Parent: MICAL3 docking peptide (human); LQLRRQLSFSEDS; partner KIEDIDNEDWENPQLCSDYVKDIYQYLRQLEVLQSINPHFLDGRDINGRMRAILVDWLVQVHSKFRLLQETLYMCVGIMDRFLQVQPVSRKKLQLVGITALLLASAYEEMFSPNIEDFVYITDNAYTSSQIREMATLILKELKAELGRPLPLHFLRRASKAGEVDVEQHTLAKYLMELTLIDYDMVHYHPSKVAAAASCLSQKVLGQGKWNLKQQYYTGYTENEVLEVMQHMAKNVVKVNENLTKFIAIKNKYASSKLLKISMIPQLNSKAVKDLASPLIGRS
Substitution | normalised enrichment score
Q2F | 2.21
R5C | 1.19
S8L | 1.07
L7S | -0.434
R5P | 0.113
S8K | 1.1
E11Q | 1.96
R4P | 0.36

Set 2
Target: ABI1, truncated, D143A, DHFR fusion (Arabidopsis thaliana)
Technique: DHFR PCA, deep sequencing
Medium: yeast
Setting: methotrexate growth selection, single substitutions
Together with: (+)-ABA 4.8 µM
Reference: wild-type fitted maximum
Reading: higher = stronger binding
Parent: PYL1, truncated, DHFR fusion (Arabidopsis thaliana); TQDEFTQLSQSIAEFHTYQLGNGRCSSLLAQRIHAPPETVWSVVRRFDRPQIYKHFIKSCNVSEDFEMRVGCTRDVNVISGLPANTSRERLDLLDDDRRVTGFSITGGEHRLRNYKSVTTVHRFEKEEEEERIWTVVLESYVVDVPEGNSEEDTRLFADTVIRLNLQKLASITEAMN
Substitution | relative binding score
T39Q | 62%
K54M | 6.79%
D92K | -19.7%
F5T | 60.5%
V142D | 18.3%
V118I | 77.1%
R132C | 83.1%
E14L | 37.8%
S150V | 14.7%
T120Y | 1.59%
N114M | 3.1%

Set 3
Target: Interferon regulatory factor 3, full length, phosphomimetic (IRF3, Homo sapiens, UniProt Q14653, residues 1-427, S386D/S396D/S398D/S402D/T404D/S405D)
Sequence of UniProt Q14653 (whole entry, unmodified, looked up): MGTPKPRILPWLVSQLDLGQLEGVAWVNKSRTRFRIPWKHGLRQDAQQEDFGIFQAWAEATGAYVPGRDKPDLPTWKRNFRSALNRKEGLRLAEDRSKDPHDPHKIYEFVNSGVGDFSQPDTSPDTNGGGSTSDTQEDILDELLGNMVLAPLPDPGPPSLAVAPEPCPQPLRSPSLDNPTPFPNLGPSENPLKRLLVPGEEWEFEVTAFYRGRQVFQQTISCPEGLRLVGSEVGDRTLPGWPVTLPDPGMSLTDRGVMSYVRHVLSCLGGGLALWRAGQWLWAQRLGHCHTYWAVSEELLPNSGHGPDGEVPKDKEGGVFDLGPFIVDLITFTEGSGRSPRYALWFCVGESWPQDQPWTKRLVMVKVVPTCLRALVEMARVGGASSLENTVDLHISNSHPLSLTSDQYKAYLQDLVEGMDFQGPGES
Technique: protein-binding microarray
Form: double-stranded DNA, one strand shown
Medium: in vitro
Concentration: 2540 nM top
Setting: 60-bp whole probe
Together with: salmon DNA 0.4 mg/ml
Reference: random background probes
Reading: higher = stronger binding
Constant ends, left off below: GCCTAGCAC … GTCTTGATTCGCTTGACGCTGCTG
Sequence | fitted relative affinity [z-score]
GACGGTTTCGACTATCGTGACGTGCTA | 2.81
ATGAAATGCCACACACACACGTGCTAG | -0.226
TTAGAACTGAATATCGATTAGTGCTAG | 0.0819
CTAGGTATCGACTTTCGGTTAGTGCTA | 2.09
TTTGGTCTCCTTTTCCTTTAGTGCTAG | 5.88
GACGGTATCCTACTGCTGTCGTGCTAG | 2.99
AGGAATTTCCCACTTTCAGTGTGCTAG | 2.53
TTAGGTATCGACTTTCGGTTGGTGCTA | 1.35
TCAAGACTCTCTTGTCTGACTGTGCTA | -0.802
GTGAAATAAGGGAGGCCTAGGTGCTAG | -0.828

Mixed results
Molecule | target | test | test system | conditions | how to read | endpoint | value
PhoQ, residues 284 288 289 292 302 303 TTCLQL | PhoP, residues 12 14 15 18 19 VHSCL (Escherichia coli, UniProt P23836) | Sort-seq, item: YFP reporter | E. coli | PhoQ-PhoP variant library, together with: 10 µM Mg2+ | reference: high Mg2+ state, higher = stronger signaling | fold induction | 5.99
